Measured values from different studies.
Numbered parts are unrelated; each lists some results of a single study. “And” joins repeats or separate records; there may be more than shown.
Chain of UniProt P06493 (whole entry, looked up): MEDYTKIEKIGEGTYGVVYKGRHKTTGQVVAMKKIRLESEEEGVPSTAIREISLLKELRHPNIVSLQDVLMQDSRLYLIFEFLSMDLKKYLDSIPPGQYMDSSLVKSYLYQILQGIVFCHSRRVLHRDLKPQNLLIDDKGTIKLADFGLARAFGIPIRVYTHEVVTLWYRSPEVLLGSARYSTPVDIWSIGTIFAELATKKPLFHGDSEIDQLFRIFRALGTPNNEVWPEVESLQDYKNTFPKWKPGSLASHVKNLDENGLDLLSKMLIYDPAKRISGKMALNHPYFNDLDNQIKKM
Chain of UniProt O43781 (whole entry, looked up): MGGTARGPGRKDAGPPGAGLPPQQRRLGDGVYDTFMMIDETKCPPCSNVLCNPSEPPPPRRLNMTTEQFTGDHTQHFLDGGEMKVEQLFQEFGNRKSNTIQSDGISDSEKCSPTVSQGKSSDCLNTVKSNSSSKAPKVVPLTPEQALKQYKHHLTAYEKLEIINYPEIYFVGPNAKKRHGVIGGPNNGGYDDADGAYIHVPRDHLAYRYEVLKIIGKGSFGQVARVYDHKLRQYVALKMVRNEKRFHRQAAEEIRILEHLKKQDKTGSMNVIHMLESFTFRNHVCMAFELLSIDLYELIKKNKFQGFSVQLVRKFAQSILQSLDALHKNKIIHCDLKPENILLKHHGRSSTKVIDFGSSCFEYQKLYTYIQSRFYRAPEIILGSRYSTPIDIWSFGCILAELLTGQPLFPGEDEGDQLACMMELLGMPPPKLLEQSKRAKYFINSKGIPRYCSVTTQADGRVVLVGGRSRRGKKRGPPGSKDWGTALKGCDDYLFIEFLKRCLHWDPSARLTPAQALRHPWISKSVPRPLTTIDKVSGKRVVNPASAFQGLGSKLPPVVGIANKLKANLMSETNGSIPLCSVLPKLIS
Chain of UniProt O95819 (whole entry, looked up): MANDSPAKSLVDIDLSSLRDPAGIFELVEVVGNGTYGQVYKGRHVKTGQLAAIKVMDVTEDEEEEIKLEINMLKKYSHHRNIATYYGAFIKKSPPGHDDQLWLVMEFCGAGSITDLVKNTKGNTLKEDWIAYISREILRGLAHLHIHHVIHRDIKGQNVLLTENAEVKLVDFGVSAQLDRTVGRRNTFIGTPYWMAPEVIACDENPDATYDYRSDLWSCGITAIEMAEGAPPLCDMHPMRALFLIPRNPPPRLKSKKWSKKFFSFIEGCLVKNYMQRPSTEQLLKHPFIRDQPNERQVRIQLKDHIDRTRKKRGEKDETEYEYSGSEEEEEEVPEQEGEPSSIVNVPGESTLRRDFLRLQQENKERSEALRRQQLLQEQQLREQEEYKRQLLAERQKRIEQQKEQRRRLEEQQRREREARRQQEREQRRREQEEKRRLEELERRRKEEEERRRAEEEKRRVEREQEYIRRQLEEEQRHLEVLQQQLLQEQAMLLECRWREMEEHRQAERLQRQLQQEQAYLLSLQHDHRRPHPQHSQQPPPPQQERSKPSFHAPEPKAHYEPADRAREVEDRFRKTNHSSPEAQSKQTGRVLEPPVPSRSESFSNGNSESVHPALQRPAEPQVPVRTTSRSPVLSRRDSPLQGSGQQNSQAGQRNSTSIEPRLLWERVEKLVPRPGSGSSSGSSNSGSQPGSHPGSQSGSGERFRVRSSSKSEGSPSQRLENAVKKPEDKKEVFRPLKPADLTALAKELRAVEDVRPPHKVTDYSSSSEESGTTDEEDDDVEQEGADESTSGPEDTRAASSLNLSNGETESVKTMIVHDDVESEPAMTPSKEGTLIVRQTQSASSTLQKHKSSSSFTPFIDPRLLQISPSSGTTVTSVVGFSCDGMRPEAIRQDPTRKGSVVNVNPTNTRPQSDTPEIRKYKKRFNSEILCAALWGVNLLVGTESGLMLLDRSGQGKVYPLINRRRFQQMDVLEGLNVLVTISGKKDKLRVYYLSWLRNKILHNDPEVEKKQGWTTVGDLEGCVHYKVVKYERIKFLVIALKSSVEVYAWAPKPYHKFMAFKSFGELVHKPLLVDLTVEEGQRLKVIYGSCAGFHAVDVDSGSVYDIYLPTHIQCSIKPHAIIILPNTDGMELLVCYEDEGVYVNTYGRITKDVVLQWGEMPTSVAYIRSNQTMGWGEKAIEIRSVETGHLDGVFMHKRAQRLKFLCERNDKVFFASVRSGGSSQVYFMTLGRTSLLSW

Study 1
Target: HLA class I histocompatibility antigen, C alpha chain, allele C*04:01 (Homo sapiens, UniProt P10321)
Observed: peptide-MHC binding
Form: peptide
Tested at: concentration not given
Endpoint: binding
YAMAIRQAI: inactive
REWGWRIPF: inactive
YTIYGAWMF: inactive
MMFDAMGAL: inactive
ISDSAQNMM: inactive
RPREATIIY: inactive
REMINHYQV: inactive
SEMGANFRA: inactive

Study 2
Compound: COc1ccc2c(c[n+](C)c3c4cc5c(cc4ccc23)OCO5)c1OC
Observed: enzyme activity
Mode: inhibitor
Tested at: 0.5 µM
Relative to: control
Endpoint: remaining activity
DYRK3 (Homo sapiens, UniProt O43781): 101%
Cyclin-dependent kinase 1, with cyclin B (CDK1, Homo sapiens, UniProt P06493): 84.4%
MAP4K4 (Homo sapiens, UniProt O95819): 84.9%

Study 3
Target: Muscarinic acetylcholine receptor M1 (CHRM1, Homo sapiens, UniProt P11229)
Chain of UniProt P11229 (whole entry, looked up): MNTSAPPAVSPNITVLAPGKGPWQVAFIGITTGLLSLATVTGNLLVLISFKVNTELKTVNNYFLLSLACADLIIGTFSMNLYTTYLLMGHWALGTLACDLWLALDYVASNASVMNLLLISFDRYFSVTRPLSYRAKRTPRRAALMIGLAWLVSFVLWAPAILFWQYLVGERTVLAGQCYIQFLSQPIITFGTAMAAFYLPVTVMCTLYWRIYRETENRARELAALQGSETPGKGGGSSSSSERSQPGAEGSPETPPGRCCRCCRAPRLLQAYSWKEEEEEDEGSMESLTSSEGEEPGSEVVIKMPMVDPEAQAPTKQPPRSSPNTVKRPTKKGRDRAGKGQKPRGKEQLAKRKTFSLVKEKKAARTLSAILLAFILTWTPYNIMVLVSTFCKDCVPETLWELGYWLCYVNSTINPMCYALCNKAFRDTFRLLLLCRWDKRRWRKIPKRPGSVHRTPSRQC
Observed: ligand displacement
Tested at: 10 µM
Endpoint: inhibition
C[C@H](c1ccc(F)cc1)N(Cc1cccc(C(=O)O)c1)C(=O)c1cnc2ccccc2c1: -14.7%
COCCOc1nc(-c2ccc(Cl)nc2)nc2c1CN(C(=O)c1ncn3ccccc13)CC2: -4.03%
Cc1c(N2CCNCC2)nc2ccc(Br)cc2c1C(=O)NC[C@H](CCC(=O)O)c1ccccc1Cl: 8.42%
Cc1noc([C@H]2C[C@@H](c3ccc(C(F)(F)F)cc3)CN(C(=O)N3CCS(=O)(=O)C3)C2)n1: -7.31%

Single results of other studies
Cell line: L929
CC(C)(C)c1nc(-c2cccc(NS(=O)(=O)c3c(F)cccc3F)c2F)c(-c2ccnc(N)n2)s1 — viability (MEM 10% FBS; 25 µM): 55.2% and 48.6% and 50.1% and 55% and 58.9%
Cc1ccc(O)cc1Nc1ccnc2cc(-c3ccccn3)ccc12 — viability (CCK-8; 3.125 µM): 35.3% and 34.5% and 47.4% and 44.9% and 46.8%
